Measurements from different studies.
A part holds a random share of what one study measured. Substitutions count along the parent as printed.
Sequence of UniProt Q96LR5 (whole entry, looked up): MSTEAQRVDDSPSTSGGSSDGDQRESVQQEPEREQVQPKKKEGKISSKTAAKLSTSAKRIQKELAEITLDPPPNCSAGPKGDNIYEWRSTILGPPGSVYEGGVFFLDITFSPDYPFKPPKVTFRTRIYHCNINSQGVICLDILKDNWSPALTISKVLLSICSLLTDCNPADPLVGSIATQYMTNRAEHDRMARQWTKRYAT
Sequence of UniProt P61077 (whole entry, looked up): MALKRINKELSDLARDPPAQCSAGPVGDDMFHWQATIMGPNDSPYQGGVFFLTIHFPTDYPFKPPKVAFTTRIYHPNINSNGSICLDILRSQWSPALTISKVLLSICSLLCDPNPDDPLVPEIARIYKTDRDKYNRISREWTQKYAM
Sequence of UniProt Q8WVN8 (whole entry, looked up): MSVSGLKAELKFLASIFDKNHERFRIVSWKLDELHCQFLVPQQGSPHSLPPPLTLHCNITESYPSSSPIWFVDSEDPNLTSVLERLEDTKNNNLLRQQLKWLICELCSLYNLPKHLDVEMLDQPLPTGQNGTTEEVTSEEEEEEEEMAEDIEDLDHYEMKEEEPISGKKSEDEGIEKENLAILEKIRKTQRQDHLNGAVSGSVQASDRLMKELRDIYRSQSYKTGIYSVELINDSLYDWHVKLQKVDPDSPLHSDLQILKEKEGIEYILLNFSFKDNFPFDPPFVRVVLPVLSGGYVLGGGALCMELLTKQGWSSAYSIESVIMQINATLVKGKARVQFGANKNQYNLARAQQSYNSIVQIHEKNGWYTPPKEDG
Sequence of UniProt Q13404 (whole entry, looked up): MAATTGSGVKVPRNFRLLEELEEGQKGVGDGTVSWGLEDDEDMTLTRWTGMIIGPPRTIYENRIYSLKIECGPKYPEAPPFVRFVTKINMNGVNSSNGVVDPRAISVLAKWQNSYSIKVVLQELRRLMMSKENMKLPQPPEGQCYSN

Sample 1
Target: CCNE1, cyclin fold, Cln2 fusion (human)
Method: yeast growth competition, sequencing
Sample: yeast
Notes: weak parent motif
Reference: not given
Reading: higher = stronger binding
Starting sequence: MASTL docking peptide (human); PMIAKNLMCELDE
Substitution | normalised enrichment score
A4D | -0.132
C9S | 0.148
E10K | 0.216
M2K | 0.229
A4K | 0.592
N6A | -0.0743
E10C | -0.0861
E10A | 0.0402
C9K | -0.0999
N6E | -0.207
L11H | 0.208
L7T | -0.329
M8W | 0.45
A4N | 0.188

Sample 2
Target: Fragile X messenger ribonucleoprotein 1, C-terminal low-complexity region (Fmr1, Mus musculus, UniProt P35922)
Method: RNA Bind-n-Seq
Molecule type: RNA
Sample: in vitro
Concentration: 200 nM
Notes: whole 134-nt RNA, ends assumed
Together with: 150 mM KCl
Reference: input library
Reading: higher = stronger binding
Constant ends, left off below: GGGAGUUCUACAGUCCGACGAUC … UGGAAUUCUCGGGUGUCAAGG
Strand | log2 enrichment
AGUCCUGUGCUACACAUCGUAUGUACCGAAUCGGUUUUUUUGGAAAGGAAAAAAAGGAAAGUAUUAUGUUACGCCGUUCGGAUCUGCACU | -1.09
CAAGUCCUGUGCUACACAUCGUAUGUACCGAAUCGGGUGGGAAAAAGGGAAAGGGAAAGUAUUAUGUUACGCCGUUCGGAUCUGCACUUC | 0.67
UGGGAGGUGGAUUUUGUUUAUUUUUUUAGCUCAUUUCCAGGGGUGGGAAUUUUCUUUUAAUAUGUGUCAUGAAUAAAGUUGUUUUUGAAA | 0.156
UCAAGUCCUGUGCUACACAUCGUAUGUACCGAAUCGGGUUUGGGUUUGGGAGGGAAAGUAUUAUGUUACGCCGUUCGGAUCUGCACUUCC | 1.25
UCAAGUCCUGUGCUACACAUCGUAUGUACCGAAUCGGGAGGGUGGGUUUUUGGGAAAGUAUUAUGUUACGCCGUUCGGAUCUGCACUUCC | 1.15
AAGUCCUGUGCUACACAUCGUAUGUACCGAAUCGGCCCCGGGGCCCCGGCCCCGGGAAAGUAUUAUGUUACGCCGUUCGGAUCUGCACUU | -1.1
UAACCUUAGAGGAGGAUCUGAUGGAUAUGGCAGUGGACGUGGAUUUGGGGAUGGCUAUAAUGGGUAUGGAGGAGGACCUGGAGGUGGCAA | 0.528
CCUGUGCUACACAUCGUAUGUACCGAAUCGGGAAAAAAAGGAAAAAAAGGAAAAAAAGGGAAAGUAUUAUGUUACGCCGUUCGGAUCUGC | -0.626
AAGUCCUGUGCUACACAUCGUAUGUACCGAAUCGGGUUUUGGGUUUUGGUUUUGGGGAAAGUAUUAUGUUACGCCGUUCGGAUCUGCACU | 0.249
ACCAUGCAGGUGGGCAUCUUUGGGAAGUGGGGCAAGGGGGGGAUAGGGAGGGGGGUAACACUUUGGGAACAGGAAAUCCCAGGUCGUUUC | 0.416
CUGUGCUACACAUCGUAUGUACCGAAUCGGGGUUUUUUUGGGGAAAAAGGGGAAAAAGGGGAAAGUAUUAUGUUACGCCGUUCGGAUCUG | -0.213
CCUGUGCUACACAUCGUAUGUACCGAAUCGGGGAAAAAGGGGUUUGGGGUUUUUUUGGGGAAAGUAUUAUGUUACGCCGUUCGGAUCUGC | 0.421
ACCAUCCAGGUGGGCAUCUUUGGGAAGUGGGGCAAGGGGGGGAUAGGGAGGGGGGUAACACUUUGGGAACAGGUGGUCCCAGGUCGUUUC | 0.941
UGGCCCUGGUGGCAUGCGGGGAGGAAGAGGUGGCCUCAUGGAUCGUGGUGGUCCCGGUGGAAUGUUCAGAGGUGGCCCUGGUGGAGACAG | 0.181

Sample 3
Target: Interferon regulatory factor 7, full length, phosphomimetic (IRF7, Homo sapiens, UniProt Q92985, residues 1-503, S101K/S471D/S472D/S475D/S476D/S477D/S483D/S484D/S487D)
Sequence of UniProt Q92985 (whole entry, unmodified, looked up): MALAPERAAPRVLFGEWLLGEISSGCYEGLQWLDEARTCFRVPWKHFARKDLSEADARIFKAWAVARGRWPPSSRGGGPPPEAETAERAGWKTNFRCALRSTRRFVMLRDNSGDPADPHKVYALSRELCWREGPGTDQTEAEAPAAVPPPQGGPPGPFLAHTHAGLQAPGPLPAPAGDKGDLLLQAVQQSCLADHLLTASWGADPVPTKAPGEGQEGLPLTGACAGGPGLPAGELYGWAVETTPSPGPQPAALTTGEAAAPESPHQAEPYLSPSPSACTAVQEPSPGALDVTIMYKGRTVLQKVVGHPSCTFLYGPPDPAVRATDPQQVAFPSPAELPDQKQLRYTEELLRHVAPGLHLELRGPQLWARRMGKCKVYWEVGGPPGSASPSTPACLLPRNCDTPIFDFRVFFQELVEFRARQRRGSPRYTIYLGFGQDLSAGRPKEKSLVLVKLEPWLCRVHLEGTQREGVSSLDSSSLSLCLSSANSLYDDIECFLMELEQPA
Method: protein-binding microarray
Molecule type: double-stranded DNA, one strand shown
Sample: in vitro
Concentration: 250 nM
Notes: 60-bp whole probe
Together with: salmon DNA 0.4 mg/ml
Reference: random background probes
Reading: higher = stronger binding
Constant ends, left off below: GCCTAGCAC … GTCTTGATTCGCTTGACGCTGCTG
Strand | log fluorescence [z-score]
TTAGATATTAGACTGGATTAGTGCTAG | 0.041
GACGGTTTCGTTCTCGGGACGTGCTAG | 9.01
TCACAATTTGCTTTAGTACTGTGCTAG | 0.35
TTAGAACTGAGTCTAGATTAGTGCTAG | -0.241
GCCGGTTCCGGTTTCGGGACGTGCTAG | 7.88
ACTTTTTTTAATTGAGAAGCGTGCTAG | 0.85
TCACATATCGGGGTGCGCACTGTGCTA | -0.0129
TTAGGTATCCGACTGGGTTAGTGCTAG | -0.151
TTAGAACCGGGGTATCGATTAGTGCTA | 0.395
GACGATTCCAGTTTCGAGGCGTGCTAG | 3.08
TTAGGTTCCGGGTATCGGTTAGTGCTA | 2.86
TTAGTACTGGGGTTTCGATTAGTGCTA | 5.56
GACGATTTCAGTTTGGAGACGTGCTAG | 0.773

Sample 4
Molecule: B1 (RNF11 RING domain)
Method: yeast two-hybrid
Sample: yeast
Notes: mostly zero background
Reference: not given
Reading: higher = stronger interaction
B1: RNF11 RING domain (UniProt Q9Y3C5); chain RDGSEKKIRECVICMMDFVYGDPIRFLPCMHIYHLDCIDDWLMRSFTCPSCMEPVDAALLSS
target | lacZ reporter activity
UBE2V1 UBC core domain (UniProt Q13404) | 0
UBE2E2 UBC core domain (UniProt Q96LR5) | 0
UBE2Q2 UBC core domain (UniProt Q8WVN8) | 0
UBE2D3 UBC core domain (UniProt P61077) | 17400

Sample 5
Target: Centromere-binding protein 1, full length, N-terminal tag (CBF1, Saccharomyces cerevisiae, UniProt P17106, residues 1-351)
Sequence of UniProt P17106 (whole entry, looked up): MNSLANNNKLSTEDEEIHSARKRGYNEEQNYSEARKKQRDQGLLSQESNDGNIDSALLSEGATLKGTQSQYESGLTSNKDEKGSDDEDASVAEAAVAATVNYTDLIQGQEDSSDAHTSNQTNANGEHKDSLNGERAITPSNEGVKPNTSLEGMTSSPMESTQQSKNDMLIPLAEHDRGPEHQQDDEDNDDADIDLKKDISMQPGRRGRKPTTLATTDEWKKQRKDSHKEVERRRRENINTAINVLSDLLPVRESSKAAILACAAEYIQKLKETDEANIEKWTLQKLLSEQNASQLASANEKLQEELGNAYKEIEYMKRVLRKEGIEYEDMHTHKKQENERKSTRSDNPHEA
Method: protein-binding microarray
Molecule type: double-stranded DNA, one strand shown
Sample: in vitro
Concentration: 0.8 µM
Notes: whole 60-bp probe, no competitor
Reading: higher = stronger binding
Constant ends, left off below: … GTCTTGATTCGCTTGACGCTGCTG
Strand | fluorescence intensity [a.u.]
CTACAGTTTTTTCGTGGTGAGCTTTTTTTGCCTTTC | 490
CTATTCCCCTTAGCACAGCTGATCCAACAATTTTTC | 591
GAATTGAAATAAGAACACGTTGGGTATAATCTATAG | 621
GAAACTCAGAGCACGCACGCTTCCGTTCGAAATTAG | 574
GAAATAATTGTACATCATGTTATCGGCGTTGATTAG | 589
GAAATGTTTGGTTAGCACATGTGTAACTACTGCTAG | 987
CTAAAAAACCCTTTTCGCGTGCCTGTGATGCTTTTC | 565
GAACAATTAAGGGCGCACGTAGTCACTTGCGAATAG | 535
GAATTCCTGTTCTGGTGCATGATGCTGGAATAATAG | 570
CTAATGACGACCTCGCACGAGGCTTATCATTGCTTC | 522
CTACCTTTGCCAGCATACGTGTTACCCCCCTCATTC | 542
GAACGGATACCCGCACAGCACGTGTTTTTCCGTTAG | 7880
TGTACGAAGCTATGAAACGTGCATATAGTAGTTAGG | 663
TGTACGAAGCTATTCGGTGTGATTATAGTAGTTAGG | 522
GAAAGGGCTTTTGAGCAGGTGAATAGAAGGTAGTAG | 546
CCTAACTACTATAGCGGTCAGATATAGCTTCGTACA | 507
CTAGTACGGAAAGATCACATGTATATATTTAACTTC | 2580
CTATTAGTAGTATATTATCACGTGCGGTGTAAGTTC | 10300
GAAAATTAGCATATTCACGCGCGACTACCAAACTAG | 568
GAACCAGTCAAGTTTTCCACCACCTTGACCCTTTAG | 519
CTAGGCAGCTCATTACTCGTGACGCAGCTTTAATTC | 1050
TGTACGAAGCTATAACACGTTTCTATAGTAGTTAGG | 576
GAAAATCACATTTCAAATATATCACGTGTTATATAG | 17400
CTATTCGAAGAGTGCAACGTGTTGAAAGAACCCTTC | 575
CCTAACTACTATAAACACATGCCATAGCTTCGTACA | 601

Some of these lines once more (sample 5):
Strand | fluorescence intensity [a.u.]
CCTAACTACTATAAACACATGCCATAGCTTCGTACA | 601
GAAATGTTTGGTTAGCACATGTGTAACTACTGCTAG | 987
CTACCTTTGCCAGCATACGTGTTACCCCCCTCATTC | 542
GAACCAGTCAAGTTTTCCACCACCTTGACCCTTTAG | 519
CCTAACTACTATAGCGGTCAGATATAGCTTCGTACA | 507
CTAGGCAGCTCATTACTCGTGACGCAGCTTTAATTC | 1050
GAACAATTAAGGGCGCACGTAGTCACTTGCGAATAG | 535
CTAAAAAACCCTTTTCGCGTGCCTGTGATGCTTTTC | 565
